Measured values gathered from unrelated publications.
Lines come from different studies, so protocols differ. Values joined by “and” are separate records of one study, mostly repeats; a detail may differ. Numbers after ± are the reported error.
KDM1A: Lysine-specific histone demethylase 1A (KDM1A, Homo sapiens, UniProt O60341)
Rhomboid protease AarA: Rhomboid protease AarA (Providencia stuartii, UniProt P46116)
UniProt Q16539, sequence (whole entry, looked up): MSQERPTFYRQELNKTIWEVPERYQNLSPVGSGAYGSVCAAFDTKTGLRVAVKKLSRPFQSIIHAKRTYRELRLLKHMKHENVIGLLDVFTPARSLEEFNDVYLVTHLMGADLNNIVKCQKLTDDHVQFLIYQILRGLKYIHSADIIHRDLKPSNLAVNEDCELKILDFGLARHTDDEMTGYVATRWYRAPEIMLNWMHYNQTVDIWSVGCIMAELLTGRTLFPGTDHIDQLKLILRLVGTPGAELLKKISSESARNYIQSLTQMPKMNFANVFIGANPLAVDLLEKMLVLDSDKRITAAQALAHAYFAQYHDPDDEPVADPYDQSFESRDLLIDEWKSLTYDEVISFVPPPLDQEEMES
UniProt P46116, sequence (whole entry, looked up): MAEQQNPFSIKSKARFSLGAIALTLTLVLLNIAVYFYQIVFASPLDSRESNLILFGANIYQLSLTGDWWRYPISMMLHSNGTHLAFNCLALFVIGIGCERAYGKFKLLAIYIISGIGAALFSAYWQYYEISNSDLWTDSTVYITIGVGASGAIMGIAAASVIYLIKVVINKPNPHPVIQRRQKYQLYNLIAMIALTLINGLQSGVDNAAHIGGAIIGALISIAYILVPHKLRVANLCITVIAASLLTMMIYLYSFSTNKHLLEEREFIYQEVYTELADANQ
UniProt O75417, sequence (whole entry, looked up): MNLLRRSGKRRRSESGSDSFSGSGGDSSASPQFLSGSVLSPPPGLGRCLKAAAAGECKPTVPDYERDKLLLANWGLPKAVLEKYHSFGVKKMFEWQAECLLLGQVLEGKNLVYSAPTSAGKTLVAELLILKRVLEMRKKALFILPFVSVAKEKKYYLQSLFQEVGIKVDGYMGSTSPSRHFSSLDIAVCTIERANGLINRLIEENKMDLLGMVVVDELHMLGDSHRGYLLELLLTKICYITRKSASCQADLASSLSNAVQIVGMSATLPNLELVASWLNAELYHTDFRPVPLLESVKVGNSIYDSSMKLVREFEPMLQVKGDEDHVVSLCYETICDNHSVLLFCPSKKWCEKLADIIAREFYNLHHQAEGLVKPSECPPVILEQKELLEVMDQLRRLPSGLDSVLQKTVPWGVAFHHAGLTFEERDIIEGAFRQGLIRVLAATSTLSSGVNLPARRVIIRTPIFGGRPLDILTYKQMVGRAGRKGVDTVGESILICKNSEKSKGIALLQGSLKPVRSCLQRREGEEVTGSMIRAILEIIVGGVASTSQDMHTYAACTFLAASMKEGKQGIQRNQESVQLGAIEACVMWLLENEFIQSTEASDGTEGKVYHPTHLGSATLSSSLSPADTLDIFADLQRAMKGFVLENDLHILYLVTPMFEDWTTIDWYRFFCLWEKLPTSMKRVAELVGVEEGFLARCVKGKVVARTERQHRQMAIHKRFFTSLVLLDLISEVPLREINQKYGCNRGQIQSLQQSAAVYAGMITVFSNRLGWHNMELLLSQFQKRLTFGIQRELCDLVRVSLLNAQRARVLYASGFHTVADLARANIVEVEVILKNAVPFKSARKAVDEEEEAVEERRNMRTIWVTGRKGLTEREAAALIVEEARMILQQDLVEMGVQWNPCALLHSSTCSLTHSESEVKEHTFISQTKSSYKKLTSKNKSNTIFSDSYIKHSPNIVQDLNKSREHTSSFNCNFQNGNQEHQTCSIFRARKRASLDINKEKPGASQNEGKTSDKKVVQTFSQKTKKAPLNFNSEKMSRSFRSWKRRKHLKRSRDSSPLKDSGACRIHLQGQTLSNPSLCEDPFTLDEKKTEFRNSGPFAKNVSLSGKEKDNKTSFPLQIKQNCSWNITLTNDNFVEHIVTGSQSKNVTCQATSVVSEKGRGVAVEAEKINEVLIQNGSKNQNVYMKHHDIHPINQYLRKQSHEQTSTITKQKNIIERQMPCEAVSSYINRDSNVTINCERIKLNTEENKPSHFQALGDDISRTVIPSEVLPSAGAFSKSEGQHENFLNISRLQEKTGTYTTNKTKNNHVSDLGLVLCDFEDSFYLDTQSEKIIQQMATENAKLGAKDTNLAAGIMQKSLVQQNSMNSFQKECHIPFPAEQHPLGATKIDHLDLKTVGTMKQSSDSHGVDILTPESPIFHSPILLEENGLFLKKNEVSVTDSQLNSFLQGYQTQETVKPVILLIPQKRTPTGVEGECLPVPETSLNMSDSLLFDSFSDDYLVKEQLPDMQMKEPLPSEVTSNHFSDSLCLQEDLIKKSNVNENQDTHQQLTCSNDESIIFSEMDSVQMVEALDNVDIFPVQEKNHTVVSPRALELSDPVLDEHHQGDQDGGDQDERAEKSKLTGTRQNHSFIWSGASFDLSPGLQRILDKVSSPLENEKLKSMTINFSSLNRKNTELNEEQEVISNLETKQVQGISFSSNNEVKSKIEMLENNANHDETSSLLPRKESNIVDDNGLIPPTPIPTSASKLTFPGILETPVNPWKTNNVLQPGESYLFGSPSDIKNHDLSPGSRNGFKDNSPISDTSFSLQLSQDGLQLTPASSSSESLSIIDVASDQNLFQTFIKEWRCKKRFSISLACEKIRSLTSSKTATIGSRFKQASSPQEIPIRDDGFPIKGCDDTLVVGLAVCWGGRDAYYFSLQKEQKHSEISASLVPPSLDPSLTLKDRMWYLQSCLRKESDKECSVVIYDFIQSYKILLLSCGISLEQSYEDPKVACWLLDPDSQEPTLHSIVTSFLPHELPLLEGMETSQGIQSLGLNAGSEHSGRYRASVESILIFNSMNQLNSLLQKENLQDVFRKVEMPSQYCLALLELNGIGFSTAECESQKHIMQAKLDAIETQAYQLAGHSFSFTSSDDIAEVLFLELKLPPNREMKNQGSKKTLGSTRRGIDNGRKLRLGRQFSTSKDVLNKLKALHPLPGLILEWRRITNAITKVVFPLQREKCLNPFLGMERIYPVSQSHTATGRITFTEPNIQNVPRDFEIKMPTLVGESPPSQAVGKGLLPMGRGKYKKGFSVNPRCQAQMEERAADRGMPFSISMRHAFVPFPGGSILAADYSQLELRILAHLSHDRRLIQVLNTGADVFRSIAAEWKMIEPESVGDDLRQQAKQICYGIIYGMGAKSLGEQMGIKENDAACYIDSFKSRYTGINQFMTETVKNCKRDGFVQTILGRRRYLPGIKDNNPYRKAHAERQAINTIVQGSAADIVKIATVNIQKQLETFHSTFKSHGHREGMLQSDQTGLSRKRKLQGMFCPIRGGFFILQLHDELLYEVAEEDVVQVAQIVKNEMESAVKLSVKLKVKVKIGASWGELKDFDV
UniProt P12295, sequence (whole entry, looked up): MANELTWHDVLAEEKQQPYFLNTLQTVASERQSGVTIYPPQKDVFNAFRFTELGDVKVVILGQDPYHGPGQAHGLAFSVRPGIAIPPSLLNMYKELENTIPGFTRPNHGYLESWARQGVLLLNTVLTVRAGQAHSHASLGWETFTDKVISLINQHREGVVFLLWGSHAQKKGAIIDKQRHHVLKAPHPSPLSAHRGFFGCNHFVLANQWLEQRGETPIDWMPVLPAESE
UniProt Q9UQL6, sequence (whole entry, looked up): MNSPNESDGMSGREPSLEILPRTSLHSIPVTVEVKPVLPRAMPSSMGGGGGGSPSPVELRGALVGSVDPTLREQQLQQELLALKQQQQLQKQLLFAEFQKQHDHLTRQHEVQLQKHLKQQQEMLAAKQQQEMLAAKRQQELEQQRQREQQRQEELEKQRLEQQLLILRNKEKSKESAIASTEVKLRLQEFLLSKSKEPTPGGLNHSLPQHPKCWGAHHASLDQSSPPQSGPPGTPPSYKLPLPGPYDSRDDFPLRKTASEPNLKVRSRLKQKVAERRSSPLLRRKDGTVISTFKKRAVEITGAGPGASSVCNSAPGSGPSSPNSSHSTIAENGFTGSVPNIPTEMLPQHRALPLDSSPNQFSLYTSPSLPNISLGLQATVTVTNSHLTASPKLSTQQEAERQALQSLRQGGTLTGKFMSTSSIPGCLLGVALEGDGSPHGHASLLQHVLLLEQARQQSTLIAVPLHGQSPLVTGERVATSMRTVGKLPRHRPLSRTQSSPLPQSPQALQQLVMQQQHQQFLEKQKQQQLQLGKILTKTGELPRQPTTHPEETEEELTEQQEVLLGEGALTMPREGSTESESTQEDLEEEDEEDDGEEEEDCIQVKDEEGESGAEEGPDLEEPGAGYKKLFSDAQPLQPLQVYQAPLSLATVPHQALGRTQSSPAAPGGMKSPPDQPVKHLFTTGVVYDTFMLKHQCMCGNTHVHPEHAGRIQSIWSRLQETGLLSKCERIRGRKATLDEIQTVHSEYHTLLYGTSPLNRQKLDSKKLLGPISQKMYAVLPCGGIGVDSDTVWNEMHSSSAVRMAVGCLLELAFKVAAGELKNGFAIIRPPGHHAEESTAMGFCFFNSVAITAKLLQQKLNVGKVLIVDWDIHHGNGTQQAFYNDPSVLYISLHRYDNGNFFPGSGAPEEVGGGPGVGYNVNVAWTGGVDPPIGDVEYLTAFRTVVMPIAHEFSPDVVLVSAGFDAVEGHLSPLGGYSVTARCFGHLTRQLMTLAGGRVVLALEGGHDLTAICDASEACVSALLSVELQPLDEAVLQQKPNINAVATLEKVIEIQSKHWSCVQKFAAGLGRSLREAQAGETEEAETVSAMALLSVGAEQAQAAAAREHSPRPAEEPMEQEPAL

O=C(Nc1nncs1)c1cccc([C@@H]2C[C@H]2NC2CCC2)c1
remaining activity (KDM1A; demethylase activity, inhibitor, Amplex Red; 0.02469 µM, with: H3K4me2 peptide; baseline: vehicle): 105%

CN(Cc1cc(C2CC2)on1)C(=O)c1cccc(-c2ccc3c(c2)CCO3)c1
remaining activity (Acetyl-CoA synthetase (Cryptococcus neoformans, UniProt J9VFT1); enzyme activity, inhibitor, coupled pyrophosphate; 6.25 µM): 101% and 95.4%

O=C1CC(c2ccccc2)N1S(=O)(=O)c1ccc(-c2ccccc2)cc1 (stereo not shown)
remaining activity (Rhomboid protease AarA; enzyme activity, inhibitor; 100 µM): 84%

COC(=O)c1ccc2c(c1)nc(NC(=O)c1ccccc1)n2CCCc1ccccc1
remaining activity (HDAC5 (Homo sapiens, UniProt Q9UQL6); enzyme activity, inhibitor; 10 µM): 87%

COC(=O)[C@@]1(C)C=C(C(=O)Nc2cccc(C(=O)Nc3ccc(Nc4nccc(-c5cccnc5)n4)c(C)c3)c2)C(=O)CC1
remaining activity (MAPK14 (Homo sapiens, UniProt Q16539); enzyme activity, inhibitor; 0.06097 µM, unit not given; baseline: vehicle): 1.03 and 1.05 and 1.22

CNC(=O)c1cccc([C@@H]2C[C@H]2NC2CCC2)c1 (racemic)
remaining activity (KDM1A; demethylase activity, inhibitor; 1.852 µM, with: H3K4me2 peptide): 82.2%

CNC(=O)C[C@H](Cc1ccc(C#N)cc1)NC(=O)c1cc(-c2ccc(CN[C@H](C)c3ccc(C)cc3)o2)ccc1Cl
remaining activity (TRPM7 (Homo sapiens, UniProt Q96QT4); enzyme activity, KinaseProfiler panel; 1 µM): 111%

COc1ccccc1-c1ccncc1C(=O)Nc1nnc(OCc2ccc(Cl)cc2)s1
remaining activity (DNA polymerase theta, helicase domain (POLQ, Homo sapiens, UniProt O75417); ATPase activity, ADP-Glo; 0.12 µM, with: ATP 100 µM): 38%

Cc1nnc(NC(=O)c2cc([C@@H]3C[C@H]3NC3CCC3)ccc2Br)s1 (relative stereo)
remaining activity (KDM1A; demethylase activity, inhibitor, Amplex Red; 0.2469 µM, with: H3K4me2 peptide; baseline: vehicle): 97%

CC(C)C1CC(=O)N1S(=O)(=O)c1cccc(Cl)c1 (stereo not shown)
remaining activity (Rhomboid protease AarA; enzyme activity, inhibitor; 100 µM): 72%

CC(C)[C@@H]1NC(=O)[C@H](Cc2ccccc2)NC(=O)CSC[C@@H](C(N)=O)NC(=O)[C@H](CCC(=O)O)NC(=O)[C@H](CO)NC(=O)[C@H](Cc2c[nH]c3cccc(Cl)c23)NC(=O)[C@H](C2CCCCC2)NC(=O)[C@H](C(C)C)NC(=O)[C@H](Cc2ccc(O)cc2)NC(=O)[C@H](CC(=O)O)NC(=O)[C@H](Cc2c[nH]c3ccccc23)NC(=O)[C@H](Cc2ccc(N)nc2)NC(=O)[C@H](Cc2c[nH]c3ccc(Cl)cc23)NC(=O)[C@H](CCC(=O)O)NC1=O
remaining activity (Interleukin-1 receptor-like 2 (IL1RL2, Homo sapiens, UniProt Q9HB29); reporter gene, inhibitor, SEAP reporter; HEK-Blue IL-36R cells; 11.11 µM, 6 h, with: IL-36β 0.03 ng/mL; baseline: IL-36β alone): -0.4%

COC(=O)c1cccc([C@@H]2C[C@H]2NC2CCC2)c1
remaining activity (KDM1A; demethylase activity, inhibitor; 0.06859 µM, with: H3K4me2 peptide): 93.2%

CCC1(O)CCCN(C(=O)c2ccc(-c3ccccc3C(F)(F)F)cc2)C1 (stereo not shown)
remaining activity (ung (Escherichia coli, UniProt P12295); enzyme activity, inhibitor; concentration not given, counter-screen): 108 ± 3%

Some of these lines once more:
COc1ccccc1-c1ccncc1C(=O)Nc1nnc(OCc2ccc(Cl)cc2)s1
remaining activity (DNA polymerase theta, helicase domain (POLQ, Homo sapiens, UniProt O75417); ATPase activity, ADP-Glo; 0.12 µM, with: ATP 100 µM): 38%
